Results of several laboratories.
Several values in a cell are separate wells, animals, samples, runs or records. ± marks the error that the study gave. Values after ≈ are worked out from the molar mass of the structure shown.
Organism: Staphylococcus aureus

Compound	assay	test system	conditions	scale	quantity	result
CC(=O)NC[C@H]1CN(c2ccc(N3CCOCC3)c(F)c2)C(=O)O1	broth microdilution	methicillin-resistant isolates	–	–	MIC90	1 µg/mL (≈ 2.96 µM)
C=CC[C@@H]1c2ccc(OC)c(OC)c2CN2CCc3cc4c(cc3[C@H]12)OCO4	–	P2rx7+/+ mice, skin wound infection	dose not given, day 1	baseline: day 0	relative wound size	0.79 and 0.95 and 1.03 and 0.93
C[C@H]1O[C@H](OC[C@H]2O[C@@H](Oc3c(-c4ccc(O)cc4)oc4cc(O)cc(O)c4c3=O)[C@H](O)[C@@H](O)[C@@H]2O)[C@@H](O)[C@@H](O)[C@@H]1O	bacterial growth	ATCC 29213	24 h	–	IC50	> 100 µM
Cn1nc(C2COC3(CCCCC3)O2)cc1-c1ccccc1 (centres unmarked)	crystal violet staining	–	500 µg/mL, 24 h	baseline: untreated	residual biofilm	5 ± 1%
COc1ccc2cc3[n+](cc2c1OC)CCc1cc2c(cc1-3)OCO2	–	–	–	–	MBC/MIC ratio	4
CN[C@H](CC(C)C)C(=O)N[C@H]1C(=O)N[C@@H](CC(N)=O)C(=O)N[C@H]2C(=O)N[C@H]3C(=O)N[C@H](C(=O)N[C@H](C(=O)O)c4cc(O)cc(O)c4-c4cc3ccc4O)[C@H](O)c3ccc(c(Cl)c3)Oc3cc2cc(c3O[C@@H]2O[C@H](CO)[C@@H](O)[C@H](O)[C@H]2O[C@H]2C[C@](C)(N)[C@H](O)[C@H](C)O2)Oc2ccc(cc2Cl)[C@H]1O	–	ATCC 29213	together with: EDTA 0.3 mM	–	MIC	1 µg/mL (≈ 0.69 µM)
CN[C@H](CC(C)C)C(=O)N[C@H]1C(=O)N[C@@H](CC(N)=O)C(=O)N[C@H]2C(=O)N[C@H]3C(=O)N[C@H](C(=O)N[C@H](C(=O)O)c4cc(O)cc(O)c4-c4cc3ccc4O)[C@H](O)c3ccc(c(Cl)c3)Oc3cc2cc(c3O[C@@H]2O[C@H](CO)[C@@H](O)[C@H](O)[C@H]2O[C@H]2C[C@](C)(N)[C@H](O)[C@H](C)O2)Oc2ccc(cc2Cl)[C@H]1O	H&E histology	MRSA GU-1, mouse skin infection model, skin	2.5 mg/kg	direction not given	skin inflammation score	1
COc1cc(/C=C/C(=O)O)ccc1O	bacterial growth	ATCC 29213	24 h	–	IC50	> 100 µM
CC(=O)NC[C@H]1CN(c2ccc(N3CCOCC3)c(F)c2)C(=O)O1	Calgary Biofilm Device	MRSA 1707 biofilm	24 h	–	MBEC	> 2000 µM
CN[C@H](CC(C)C)C(=O)N[C@H]1C(=O)N[C@@H](CC(N)=O)C(=O)N[C@H]2C(=O)N[C@H]3C(=O)N[C@H](C(=O)N[C@H](C(=O)O)c4cc(O)cc(O)c4-c4cc3ccc4O)[C@H](O)c3ccc(c(Cl)c3)Oc3cc2cc(c3O[C@@H]2O[C@H](CO)[C@@H](O)[C@H](O)[C@H]2O[C@H]2C[C@](C)(N)[C@H](O)[C@H](C)O2)Oc2ccc(cc2Cl)[C@H]1O	–	clinical isolates	≤0.5 µg/mL, MIC breakpoint	–	isolates inhibited	13.6%
Cc1ccc(C[C@H](NC(=O)[C@@H](Cc2ccccc2)NC(=O)[C@@H](Cc2c[nH]c3ccccc23)NC(=O)[C@@H](N)CCCN)C(=O)N[C@H](Cc2ccccc2)C(=O)N[C@H](Cc2c[nH]cn2)C(N)=O)cc1	–	ATCC 33591, methicillin-resistant	–	–	IC50	> 20 µg/mL
CC[C@@H](C)[C@H]1O[C@@H](c2c(O)c(-c3ccccc3)cn(O)c2=O)[C@H](C)C[C@@H]1C	bacterial growth	ATCC 33591, MRSA	–	–	IC50	> 20 µg/mL
O=C(N[C@H](CO)[C@H](O)c1ccc([N+](=O)[O-])cc1)C(Cl)Cl	–	CGMCC 1.9	concentration not given, 18 h, 37 °C	–	inhibition zone diameter	19.5 mm
O=C(O)c1ccc(-n2cc(CNc3ccc(Br)c(C(F)(F)F)c3)c(-c3cccc(F)c3)n2)cc1	–	ATCC 25923	24 h, preformed biofilm	–	biofilm MIC	2 × planktonic MIC
O=C(/C=C/c1ccc(O)c(O)c1)O[C@H]1[C@H](O)C[C@](O)(C(=O)O)C[C@H]1O	bacterial growth	ATCC 29213	24 h	–	IC50	> 100 µM
CN[C@H](CC(C)C)C(=O)N[C@H]1C(=O)N[C@@H](CC(N)=O)C(=O)N[C@H]2C(=O)N[C@H]3C(=O)N[C@H](C(=O)N[C@H](C(=O)O)c4cc(O)cc(O)c4-c4cc3ccc4O)[C@H](O)c3ccc(c(Cl)c3)Oc3cc2cc(c3O[C@@H]2O[C@H](CO)[C@@H](O)[C@H](O)[C@H]2O[C@H]2C[C@](C)(N)[C@H](O)[C@H](C)O2)Oc2ccc(cc2Cl)[C@H]1O	colony counting	RAW264.7 29213 infected, 29213	32 µM, 4 h	–	intracellular bacteria killed	32.6%

Compound	assay	test system	conditions	scale	quantity	result
CN[C@H](CC(C)C)C(=O)N[C@H]1C(=O)N[C@@H](CC(N)=O)C(=O)N[C@H]2C(=O)N[C@H]3C(=O)N[C@H](C(=O)N[C@H](C(=O)O)c4cc(O)cc(O)c4-c4cc3ccc4O)[C@H](O)c3ccc(c(Cl)c3)Oc3cc2cc(c3O[C@@H]2O[C@H](CO)[C@@H](O)[C@H](O)[C@H]2O[C@H]2C[C@](C)(N)[C@H](O)[C@H](C)O2)Oc2ccc(cc2Cl)[C@H]1O	–	USA300 LAC, female ICR mice, peritonitis, spleen	–	–	bacterial load	4.68 log CFU and 5.39 log CFU and 4.31 log CFU and 5.45 log CFU and 5.7 log CFU and 4.7 log CFU
CCCCCCCCCC(=O)N[C@@H](Cc1c[nH]c2ccccc12)C(=O)N[C@H](CC(N)=O)C(=O)N[C@@H](CC(=O)O)C(=O)N[C@@H]1C(=O)NCC(=O)N[C@@H](CCCN)C(=O)N[C@@H](CC(=O)O)C(=O)N[C@H](C)C(=O)N[C@@H](CC(=O)O)C(=O)NCC(=O)N[C@H](CO)C(=O)N[C@@H]([C@H](C)CC(=O)O)C(=O)N[C@@H](CC(=O)c2ccccc2N)C(=O)O[C@@H]1C	Calgary Biofilm Device	MRSA 1707	24 h	–	MBC	125 µM (≈ 203 µg/mL)
Cl.Oc1cccc2c1[nH]c1c(C3=CC4(O)CC/C=C\CCCCN5CCC3C3(CC6/C=C\CCCCN6C43)C5)nccc12 (single isomer, unassigned; (+))	growth	ATCC 43300, MRSA	–	–	IC50	0.61 ± 0.01 µg/mL
COc1c(N2C[C@@H]3CCCN[C@@H]3C2)c(F)cc2c(=O)c(C(=O)O)cn(C3CC3)c12	broth microdilution	methicillin-resistant isolates	–	–	MIC90	2 µg/mL (≈ 4.98 µM)
[H]/N=C(/N)N[C@H]1[C@H](O)[C@@H](O)[C@H](O[C@@H]2O[C@@H](C)[C@](O)(C=O)[C@H]2O[C@@H]2O[C@@H](CO)[C@H](O)[C@@H](O)[C@@H]2NC)[C@@H](N/C(N)=N\[H])[C@@H]1O	–	CGMCC 1.9	concentration not given, 18 h, 37 °C	–	inhibition zone diameter	13 mm
O=C(NCCc1ccccc1)C(O)CO (centres unmarked)	crystal violet staining	–	500 µg/mL, 24 h	baseline: untreated	residual biofilm	83 ± 10%
CCn1cc(C(=O)O)c(=O)c2cc(F)c(N3CCNCC3)cc21	–	CGMCC 1.9	concentration not given, 18 h, 37 °C	–	inhibition zone diameter	11 mm
O=C(/C=C/c1ccc(O)c(O)c1)O[C@@H]1C[C@](O)(C(=O)O)C[C@@H](O)[C@H]1O	bacterial growth	ATCC 29213	24 h	–	IC50	> 100 µM
CC(C)c1ccc(/C=C2\N=C(SCC(=O)c3ccccc3)N(c3ccccc3)C2=O)cc1	–	ATCC 6538	concentration not given	–	inhibition zone diameter	11 ± 0.63 mm
OC[C@H]1O[C@@H](Oc2cc3c(O)cc(O)cc3[o+]c2-c2ccc(O)cc2)[C@H](O)[C@@H](O)[C@@H]1O	bacterial growth	ATCC 29213	24 h	–	IC50	46.5 µM
CN[C@H](CC(C)C)C(=O)N[C@H]1C(=O)N[C@@H](CC(N)=O)C(=O)N[C@H]2C(=O)N[C@H]3C(=O)N[C@H](C(=O)N[C@H](C(=O)O)c4cc(O)cc(O)c4-c4cc3ccc4O)[C@H](O)c3ccc(c(Cl)c3)Oc3cc2cc(c3O[C@@H]2O[C@H](CO)[C@@H](O)[C@H](O)[C@H]2O[C@H]2C[C@](C)(N)[C@H](O)[C@H](C)O2)Oc2ccc(cc2Cl)[C@H]1O	–	09057, female BALB/c mice, sepsis, spleen	intraperitoneal, 20 mg/kg	–	log bacterial load	4.91 log(CFU/g) and 5.18 log(CFU/g) and 4.73 log(CFU/g) and 5.2 log(CFU/g) and 5.25 log(CFU/g) and 5.26 log(CFU/g)
Cn1nc(-c2ccccc2)cc1C1COC2(CCCCC2)O1 (centres unmarked)	crystal violet staining	–	500 µg/mL, 24 h	baseline: untreated	residual biofilm	6 ± 1%
OC[C@H]1O[C@@H](Oc2cc3c(O[C@@H]4O[C@H](CO)[C@@H](O)[C@H](O)[C@H]4O)cc(O)cc3[o+]c2-c2ccc(O)c(O)c2)[C@H](O)[C@@H](O)[C@@H]1O	bacterial growth	ATCC 29213	24 h	–	IC50	> 100 µM
O=C1/C(=C/c2ccc3ccccc3c2O)NC(=S)N1c1ccccc1	–	ATCC 6538	concentration not given	–	inhibition zone diameter	21 ± 0.18 mm
CN[C@H](CC(C)C)C(=O)N[C@H]1C(=O)N[C@@H](CC(N)=O)C(=O)N[C@H]2C(=O)N[C@H]3C(=O)N[C@H](C(=O)N[C@H](C(=O)O)c4cc(O)cc(O)c4-c4cc3ccc4O)[C@H](O)c3ccc(c(Cl)c3)Oc3cc2cc(c3O[C@@H]2O[C@H](CO)[C@@H](O)[C@H](O)[C@H]2O[C@H]2C[C@](C)(N)[C@H](O)[C@H](C)O2)Oc2ccc(cc2Cl)[C@H]1O	–	ATCC 29213	1 strain	–	MIC50	1 µg/mL (≈ 0.69 µM)
O=C(O)c1ccc(-n2cc(CNc3ccc(Cl)c(C(F)(F)F)c3)c(-c3cccc(F)c3)n2)cc1	–	ATCC 25923	24 h, preformed biofilm	–	biofilm MIC	2 × planktonic MIC
